# Measurements pooled from the literature.
# Each numbered part is a random draw from the data of one study; scales do not carry over between parts. Substitutions count along the parent as printed.

# Series 1 — technique: protein-binding microarray; molecule type: double-stranded DNA, one strand shown; matrix: in vitro; tested at: 250 nM; notes: 60-bp whole probe; with: salmon DNA 0.4 mg/ml; baseline: random background probes; reading: higher = stronger binding; constant ends, left off below: GCCTAGCAC … GTCTTGATTCGCTTGACGCTGCTG
# Target: Interferon regulatory factor 5, full length, phosphomimetic (IRF5, Homo sapiens, UniProt Q13568-2, residues 1-514, K96S/S451D/S453D/S456D/S462D)
Sequence,log fluorescence [z-score]
GACGGACTGGTACTGCTGACGTGCTAG,-0.598
GACGATTTCAGTATCAAGACGTGCTAG,2.08
GACGGTCTCGGTATCAGGACGTGCTAG,0.475
GACGATTGCAGTTCCGAGACGTGCTAG,0.091
TCAGGTCTCCTACTGCTTTAGTGCTAG,-0.303
TTGATAATTTTTTTCTAAGTGTGCTAG,0.601
TCAAGAAAAAGAAAAAAAACTGTGCTA,0.671
GAGGGTTTCCTACTGCTGACGTGCTAG,-0.297
GACGGTATCGACCCTGGGGACGTGCTA,1.02
GACGATTTAAGACTGGAGACGTGCTAG,-0.0904
TTAGGACTGGACCCTGGGTTAGTGCTA,-0.635
TTTACTTTCTGAATGCCCTTGTGCTAG,5.4
TCAGTTATCCATCTCAAACTGTGCTAG,0.286
TAAAGCATTACTTTAGGTTCGTGCTAG,-0.0211
GAAGATCTCAGTATCGAGACGTGCTAG,1.97
AACGATTTCGGGTATCGAGACGTGCTA,5.1
CACGATTTCGGGTATCGAGACGTGCTA,4.32
GACGTTTTCGGTTTCGGGACGTGCTAG,10
GACGGACTGCTTATCCTTACGTGCTAG,-0.393

# Series 2 — technique: RNAcompete; molecule type: RNA; matrix: in vitro; tested at: 20 nM; notes: 7-mer, probes averaged, single round; baseline: mean of 7-mers; reading: higher = stronger binding
# Target: PABPC1L2, full length, GST fusion (mouse, UniProt A0ABA7IW68)
# Residues (chain): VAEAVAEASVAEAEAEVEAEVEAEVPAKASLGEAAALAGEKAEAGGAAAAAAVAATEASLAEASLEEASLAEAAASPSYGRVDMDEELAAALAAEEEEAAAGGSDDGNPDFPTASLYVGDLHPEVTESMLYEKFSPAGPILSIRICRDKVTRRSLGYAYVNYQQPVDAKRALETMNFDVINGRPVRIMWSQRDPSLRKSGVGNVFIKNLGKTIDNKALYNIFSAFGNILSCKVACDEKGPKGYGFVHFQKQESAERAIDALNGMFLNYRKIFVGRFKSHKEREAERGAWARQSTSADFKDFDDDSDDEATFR
Sequence,7-mer Z-score
UGGAGAC,0.0569
AAUUUUC,-0.22
GCCGUCC,-0.449
UACUCUG,-0.325
CUAUAUU,-0.132
UAUCAGA,-0.0047
AUUGAUA,0.00617
AGGCUCA,0.0877
GGGUAUU,-0.0409
GGACUGG,0.222
UAGCAUU,-0.05
AUGGCGG,0.215
UCCAUUC,-0.278
GAUACCU,-0.342
CUAACAC,-0.19
CUGUCGC,-0.407
CUUGGUU,-0.356
CUACGAA,-0.113
CAGGCCA,-0.119
UGGGAGC,0.271
GAAAUCC,0.066
CGCCGCA,-0.202
CUACGCC,-0.364
CGCGAAA,0.706
GUGUGUU,-0.432

# Series 3 — target: CREB5, bZIP domain (human); technique: DHFR protein complementation; matrix: yeast; baseline: wild-type JUN-FOS pair; reading: higher = stronger binding
# Notes: single substitutions, most at no-binding floor
# Starting sequence: JUN, bZIP domain (human); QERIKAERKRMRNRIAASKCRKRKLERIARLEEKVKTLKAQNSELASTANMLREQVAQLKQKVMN; partner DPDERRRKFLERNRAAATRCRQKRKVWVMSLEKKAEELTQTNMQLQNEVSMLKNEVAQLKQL
Variant,binding fitness [natural log]
M51V,-0.356
Q41S,-1.28
L38D,-1.52
K39E,-0.0627
R53V,-1.26
K39P,-1.34
S47I,-0.349
L59K,-1.44
K36E,-0.202
N42H,-0.522
E44H,-0.446
K36S,-0.25
L52V,-1.37
T48E,-0.259
L52C,-1.39
Q55K,-0.406
L52P,-1.4

# Series 4 — organism: Saccharomyces cerevisiae; read-out: binding; technique: yeast competitive growth sequencing; molecule type: peptide; strain: cyclin D1-Cln2 strain; matrix: peptide tiling library; notes: pooled screen; reading: direction not given
Molecule,enrichment score
NEGVSNAVRRSLYIRD,-1.22
SPPRGRRLFPPGPAGF,0.0631
AEHPKPSACRNLFGPV,0.675
KVRRNLFNQELLSP,-0.911
QYQVVDDIVSKLVFDF,0.555
RTEALEQGGLPKKLIF,0.801
QNPCGSKACRRLFGPV,0.268
EHCRVLFLDHVMYTIH,-0.784
AKRSLGFLPQPVPL,-1.29
VKRLNFRSEEME,-2.01
HPESPPRKRLKSKGSD,4.25
YLYLLLTQSLWCRV,-1.81
RQVRRDLFAF,-2.04
EPRNLLSLFEDTLDPT,0.554
GTPKRCLDLSNLSSGE,-0.374

# For quick reference, copied from above (series 4):
Molecule,enrichment score
NEGVSNAVRRSLYIRD,-1.22
SPPRGRRLFPPGPAGF,0.0631
AEHPKPSACRNLFGPV,0.675
KVRRNLFNQELLSP,-0.911
QYQVVDDIVSKLVFDF,0.555
RTEALEQGGLPKKLIF,0.801
QNPCGSKACRRLFGPV,0.268
EHCRVLFLDHVMYTIH,-0.784
AKRSLGFLPQPVPL,-1.29
VKRLNFRSEEME,-2.01
HPESPPRKRLKSKGSD,4.25
